Measured values collected from several papers.
A part holds a random share of what one study measured.

Sample 1
Target: Sal-like protein 4, full length isoform A (SALL4, Homo sapiens, UniProt Q9UJQ4, residues 1-1053)
Chain of UniProt Q9UJQ4 (whole entry, looked up): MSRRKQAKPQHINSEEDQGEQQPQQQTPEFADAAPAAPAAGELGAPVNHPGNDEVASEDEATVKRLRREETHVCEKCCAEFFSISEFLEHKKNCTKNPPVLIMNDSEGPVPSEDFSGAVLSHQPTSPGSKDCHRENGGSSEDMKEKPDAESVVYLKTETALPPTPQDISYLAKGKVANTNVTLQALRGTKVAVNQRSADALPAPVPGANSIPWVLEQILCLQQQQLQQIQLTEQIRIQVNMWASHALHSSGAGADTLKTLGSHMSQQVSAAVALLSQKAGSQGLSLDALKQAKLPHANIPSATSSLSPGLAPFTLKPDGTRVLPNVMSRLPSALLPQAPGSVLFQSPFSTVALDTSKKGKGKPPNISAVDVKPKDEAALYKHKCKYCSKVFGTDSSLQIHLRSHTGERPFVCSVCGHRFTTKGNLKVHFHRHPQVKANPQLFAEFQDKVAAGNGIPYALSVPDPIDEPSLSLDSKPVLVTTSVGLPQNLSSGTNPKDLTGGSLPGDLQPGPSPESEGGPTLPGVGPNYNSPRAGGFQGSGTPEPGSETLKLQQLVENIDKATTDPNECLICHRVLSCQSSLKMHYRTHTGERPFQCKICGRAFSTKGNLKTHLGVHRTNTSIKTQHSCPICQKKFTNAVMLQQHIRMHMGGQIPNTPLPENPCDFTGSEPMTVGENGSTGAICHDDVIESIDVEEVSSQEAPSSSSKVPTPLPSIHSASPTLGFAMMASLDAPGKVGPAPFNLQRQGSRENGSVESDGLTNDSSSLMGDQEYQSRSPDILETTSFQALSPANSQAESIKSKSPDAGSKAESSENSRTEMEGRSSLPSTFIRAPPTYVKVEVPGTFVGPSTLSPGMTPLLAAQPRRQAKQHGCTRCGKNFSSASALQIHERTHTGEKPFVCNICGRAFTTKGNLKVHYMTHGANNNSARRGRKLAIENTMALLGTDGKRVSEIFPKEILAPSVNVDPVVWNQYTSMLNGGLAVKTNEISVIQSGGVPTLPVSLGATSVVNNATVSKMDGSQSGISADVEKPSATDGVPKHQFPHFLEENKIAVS
Technique: universal PBM
Molecule type: double-stranded DNA, one strand shown
Medium: in vitro
Tested at: 600 nM
Setting: 8-mer, flanks averaged, mean of replicates
Reading: higher = stronger binding
The E-score of `ACCGCTAT` is reported as -0.0575.
For `CATGCTCG`, the E-score was -0.0477.
With `TCCGACAA` the E-score was 0.0293.
`GGCAACCC` has an E-score of -0.333.
The E-score of `ACGTCTTG` is reported as 0.00358.
The E-score of `TTCAACAA` is reported as 0.213.

Sample 2
Target: Interferon regulatory factor 5, full length, phosphomimetic (IRF5, Homo sapiens, UniProt Q13568-2, residues 1-514, S451D/S453D/S456D/S462D)
Technique: protein-binding microarray
Molecule type: double-stranded DNA, one strand shown
Medium: in vitro
Tested at: 940 nM top
Setting: 60-bp whole probe
Added: salmon DNA 0.4 mg/ml
Relative to: random background probes
Reading: higher = stronger binding
Shared flanks, not repeated: GCCTAGCAC … GTCTTGATTCGCTTGACGCTGCTG
`TAAGATTCCAGTTTCGATTAGTGCTAG`: “fitted relative affinity” 8.72 z-score.
Under “fitted relative affinity”, `GACGAAATCAGTCTCGAGACGTGCTAG` is recorded as 1.28 z-score.
`GACGGACTGTGGTATCGGGACGTGCTA`: “fitted relative affinity” 0.744 z-score.
For `TACGGTTTCGACTATCGGGACGTGCTA`, “fitted relative affinity” read 7.6 z-score.
For `TCAATTTTCTGAATGCTACTGTGCTAG`, “fitted relative affinity” read 0.429 z-score.
`GACGGTCTCGGTCTCGGGATGTGCTAG` — result for “fitted relative affinity”: 3.77 z-score.

Sample 3
Target: Prothrombin, mature alpha-thrombin (F2, Homo sapiens, UniProt P00734)
Technique: aptamer microarray, sandwich
Molecule type: DNA with 2'F-ANA
Medium: in vitro
Tested at: 200 nM
Setting: whole 15-mer aptamer, many near background
Added: Cy3 exosite-II aptamer, 400 nM
Reading: higher = stronger binding
`GGTTGGTGTGGTTGG (2'F-ANA at 1 2 3 4 5 7 9 11 12 13 14 15)`: “mean fluorescence intensity” 46.6 a.u.
`GGTTGGTGTGGTTGG (2'F-ANA at 3 5 6 7 15)`: “mean fluorescence intensity” 107 a.u.
For `GGTTGGTGTGGTTGG (2'F-ANA at 4 8 10 11 12 13 14 15)`, “mean fluorescence intensity” read 58 a.u.
Under “mean fluorescence intensity”, `GGTTGGTGTGGTTGG (2'F-ANA at 3 6 8 10 11 12 13 15)` is recorded as 449 a.u.

Further values, each from its own experiment
With `PhoQ, residues 284 288 289 292 302 303 SVTLVV` the fold induction was 1.43 (PhoP, residues 12 14 15 18 19 DLLYY (Escherichia coli, UniProt P23836); Sort-seq, measured: YFP reporter; E. coli; PhoQ-PhoP variant library, added: 10 µM Mg2+; relative to: high Mg2+ state, higher = stronger signaling).

A few entries again (sample 1):
The E-score of `TTCAACAA` is reported as 0.213.
